Results collected from several papers.
Protocols differ between the studies behind these lines. ± gives the spread as reported.

C#CCNC(=O)c1ccc(S(=O)(=O)N[C@@H](CCCCNC(=O)c2cncc(OS(=O)(=O)F)c2)C(=O)N[C@@H](CCCNC(=N)N)C(=O)NC2CCC2)cc1 — half-life (chemical stability, HPLC; glutathione solution; 50 µM, pH 8): > 17 h
CC(COC(=O)c1ccccc1)OC(=O)C(N)Cc1ccccc1 (mixture of isomers) — half-life (isotonic buffer; pH 7.4, 37 °C): 21.3 ± 4.42 h
CC(C)C[C@H](NC(=O)[C@H](CCCCN)NC(=O)[C@H](CCC(=O)O)NC(=O)[C@H](C)NC(=O)[C@@H](NC(=O)[C@H](CCCCN)NC(=O)[C@H](CC(=O)O)NC(=O)[C@H](Cc1ccc(O)cc1)NC(=O)[C@H](Cc1ccccc1)NC(=O)[C@H](C)NC(=O)[C@H](CCCCN)NC(=O)[C@H](CC(C)C)NC(=O)[C@H](Cc1c[nH]c2ccccc12)NC(=O)[C@@H](N)CC(=O)O)C(C)C)C(=O)N[C@@H](CCCCN)C(=O)N[C@@H](CCC(=O)O)C(=O)N[C@@H](C)C(=O)N[C@@H](Cc1ccccc1)C(=O)N1CCC[C@H]1C(=O)N[C@@H](CC(=O)O)C(=O)N[C@@H](Cc1c[nH]c2ccccc12)C(=O)N[C@@H](C)C(=O)N[C@@H](CCCCN)C(=O)N[C@@H](C)C(=O)N[C@@H](C)C(=O)N[C@@H](Cc1ccc(O)cc1)C(=O)N[C@@H](CC(=O)O)C(=O)N[C@@H](CCCCN)C(=O)N[C@@H](C)C(=O)N[C@@H](C)C(=O)N[C@@H](CCC(=O)O)C(=O)N[C@@H](CCCCN)C(=O)N[C@@H](C)C(=O)N[C@@H](CCCCN)C(=O)N[C@@H](CCC(=O)O)C(=O)N[C@@H](C)C(=O)N[C@@H](C)C(=O)O — half-life (cynomolgus monkey female, plasma; intravenous infusion, 75 mg/kg every other day, day 27): 4 h
CCCCCCCC/C=C\CCCCCCCCOP(O)(O)=S.N — half-life (mouse, male, irradiated; sc, dose not given, 15.6 Gy partial-body, dosed 24 h after): 1.52 h
CC(C)C[C@@H](/C=C/CC(=O)NC1CC(C)(C)N([O])C(C)(C)C1)NC(=O)OC(C)(C)C — half-life (C57BL/6NHsd mouse, female, liver): 1 h
CC(COC(=O)c1ccccc1)OC(=O)C(N)C(C)C (mixture of isomers) — half-life (isotonic buffer; pH 4.0, 37 °C): > 30 h
COC(=O)CCC(C)C1CCC2C3C(O)CC4CC(OC(=O)CCC(=O)OC5OC6OC7(C)CCC8C(C)CCC(C5C)C68OO7)CCC4(C)C3CCC12C (centres unmarked) — half-life (chemical stability; culture medium; 20 µM): ~15 h
CC[C@H](C)[C@@H]1NC(=O)[C@H](Cc2ccc(O)cc2)NC(=O)[C@@H](N)CSCSC[C@@H](C(=O)N2CCC[C@H]2C(=O)N[C@@H](CC(C)C)C(=O)NCC(N)=O)NC(=O)[C@H](CC(N)=O)NC(=O)[C@H](CCC(N)=O)NC1=O — half-life (phosphate buffer; 0.1 mg/mL, pH 2.0, 55 °C): 86.4 h
